Experimental data collected from several papers.
Protocols differ between the studies behind these lines. Several values in a cell are separate wells, animals, samples, runs or records. ± gives the spread as reported. ≈ marks a conversion by molar mass, not a printed value.

Structure (SMILES) | organism | test | test system | setting | how to read | endpoint | result
CCOC(=O)C1(Cc2ccccc2)Oc2cc(F)ccc2N(Cc2ccccc2)C1=O (stereo not shown) | Echinochloa crus-galli | – | greenhouse | postemergence, 150 g ai/ha, 21 days | – | fresh weight inhibition | 44.2 ± 2.35%
COc1ccc(NC(=O)N2CCCCN3[C@H](CN(C)C)[C@H](c4ccc(C#Cc5ccccc5)cc4)[C@@H]3C2)cc1 | Toxoplasma gondii | bradyzoite growth | – | alkaline-induced bradyzoites | – | EC50 | 224 nM
[2H]C([2H])(c1cc(F)c(F)cc1F)n1c(=O)n(Cc2ncn(C)n2)c(=O)[nH]/c1=N\c1cc2cn(C)nc2cc1Cl | canine coronavirus | viral replication, qRT-PCR | CRFK | 48 h | – | IC50 | 53400 nM
COc1ccc(Cn2c3cc(=O)n(Cc4cccc(Cl)n4)c(C)c3c(=O)n2-c2ccccn2)cc1 | human respiratory syncytial virus | – | recombinant reporter virus | concentration not given, scale 0 to 100, added: adenosine 0.4 µM | – | normalized viral replication | 0
C[C@@]1(O)[C@H](O)[C@@H](CO)O[C@H]1n1ccc2c(N)ncnc21 | dengue virus type 2 | viral replication, Renilla luciferase reporter virus | Huh-7.5.1 | 48 h | – | EC50 | 1140 nM
CCOC(=O)C1(Cc2ccc(-c3ccccc3)cc2)Oc2cc(F)ccc2N(Cc2ccc(-c3ccccc3)cc2)C1=O (stereo not shown) | Echinochloa crus-galli | fresh weight, greenhouse postemergence | – | postemergence, 150 g ai/ha, 21 days | – | inhibition | 48.4 ± 1.07%
COc1ccc(C2=[N+]([O-])c3ccccc3N3CCCN=C23)cc1 | Parabacteroides distasonis and Bacteroides spp. | bacterial growth | – | – | – | MIC90 | 2 µg/mL (≈ 6.51 µM)
CC[C@H](C)CCCCC(=O)N[C@@H](CCN)C(=O)N[C@H](C(=O)N[C@@H](CCN)C(=O)N[C@H]1CCNC(=O)[C@H]([C@@H](C)O)NC(=O)[C@H](CCN)NC(=O)[C@H](CCN)NC(=O)[C@H](CC(C)C)NC(=O)[C@@H](CC(C)C)NC(=O)[C@H](CCN)NC1=O)[C@@H](C)O | Escherichia coli | daily serial passaging | ATCC 8739 | highest sub-MIC, 15 days | relative to: initial MIC | MIC fold change | 1.47
[O-][N+]1=C(Cc2ccccc2)C2=NCCCN2c2ccccc21 | Prevotella spp. | bacterial growth | – | – | – | MIC50 | 1 µg/mL (≈ 3.43 µM)
COc1cc(C(SC(C)C)SC(C)C)ccc1OCCNS(=O)(=O)c1cccc(Br)c1 | Tobacco mosaic virus | inactivation activity | plant in vivo | – | – | EC50 | 771.6 ± 1.2 µg/mL
COc1ccc(C2=[N+]([O-])c3ccccc3N3CCN=C23)cc1 | Prevotella spp. | bacterial growth | – | – | – | MIC50 | ≤ 0.06 µg/mL
NCCO.O=C(O)C(Cl)Cl | Eclipta prostrata | – | – | 15 mg/mL, 21 days, post-emergence, greenhouse | – | herbicidal inhibition | 0%
CCOC(=O)C1(Cc2c(F)cccc2F)Oc2cc(F)ccc2N(Cc2c(F)cccc2F)C1=O (stereo not shown) | Eclipta prostrata | fresh weight, greenhouse postemergence | – | postemergence, 150 g ai/ha, 21 days | – | inhibition | 61 ± 2.29%
Cc1ccc(N2CC3CC(C2)N3C)cc1C(=O)NC1(c2ccc3c4c(cccc24)C(=O)N3C)CC1 | Human coronavirus NL63 | viral replication | – | 0.1 µM | – | inhibition | 54.8%
COc1cc(C(SC(C)C)SC(C)C)ccc1OCCNS(=O)(=O)c1ccc(Cl)cc1 | Tobacco mosaic virus | protective activity | plant in vivo | – | – | EC50 | 250 ± 3.5 µg/mL
OB(O)c1ccc(C(F)(F)F)s1 | Staphylococcus aureus | – | USA300 wild type | 10 µM | relative to: untreated | growth relative to untreated | 78.8% and 68% and 80.8% and 75.6% and 81.4% and 67%
C=CCN1C(=O)C(CC=C)(C(=O)OCC)Oc2cc(F)ccc21 (stereo not shown) | Eclipta prostrata | – | greenhouse | postemergence, 150 g ai/ha, 21 days | – | fresh weight inhibition | 53.5 ± 2.14%

Structure (SMILES) | organism | test | test system | setting | how to read | endpoint | result
CCCCCCCCCCCCCC(=O)N[C@H]1C(=O)N[C@@H](CN)C(=O)N[C@@H](CO)C(=O)N[C@@H](Cc2ccc(O)cc2)C(=O)O[C@H]1C | Staphylococcus aureus | – | SH1000 | added: phosphatidylethanolamine, molar ratio 1 | – | MIC | 2 µg/mL
CC(C)SC(SC(C)C)c1ccc(OCCNS(=O)(=O)c2cccc(Br)c2)c(Cl)c1 | Tobacco mosaic virus | protective activity | plant in vivo | – | – | EC50 | 330 ± 3.8 µg/mL
CCOC(=O)C1(Cc2ccccc2)Oc2ccccc2N(Cc2ccccc2)C1=O (stereo not shown) | Eclipta prostrata | fresh weight, greenhouse postemergence | – | postemergence, 150 g ai/ha, 21 days | – | inhibition | 56.2 ± 3.84%
[O-][N+]1=C(c2ccsc2)C2=NCCCN2c2ccccc21 | Prevotella spp. | bacterial growth | – | – | – | MIC90 | 0.5 µg/mL (≈ 1.76 µM)
CCOC(=O)C1(Cc2ccc(C#N)cc2)Oc2cc(F)ccc2N(Cc2ccc(C#N)cc2)C1=O (stereo not shown) | Eclipta prostrata | fresh weight, greenhouse postemergence | – | postemergence, 150 g ai/ha, 21 days | – | inhibition | 64.3 ± 1.91%
[O-][N+]1=C(c2ccc(Cl)cc2)C2=NCCCN2c2ccccc21 | Prevotella spp. | bacterial growth | – | – | – | MIC90 | 1 µg/mL (≈ 3.21 µM)
CCCCSC(SCCCC)c1ccc(OCCNS(=O)(=O)c2ccc(F)cc2)c(OC)c1 | tobacco mosaic virus | curative activity | in vivo plant | – | – | EC50 | 329.5 ± 1.5 µg/mL
CN(C(=O)c1ccn2ncc(-c3ccc(C(N)=O)cc3)c2c1)c1ccc(C#N)cn1 | Cryptosporidium parvum | – | UGA1 Nluc, IFN-gamma knockout C57BL/6 mice, faeces | oral, 10 mg/kg daily, 360 h post infection, treatment days 11-17 | higher means more parasites | faecal Nluc luminescence | 516 a.u. and 1650 a.u. and 3620 a.u. and 64300 a.u. and 3500 a.u.
Cc1cc(C(=O)Nc2nc3cccc(C)c3n2[C@H]2CCCCN(C(=O)/C=C/CN(C)C)C2)ccn1 | Trypanosoma brucei | cell growth, Alamar Blue | 2T1 overexpressing Tb927.3.2440 | – | relative to: parental 2T1 | EC50 fold shift | 0.61 fold and 0.92 fold
CCCCSC(SCCCC)c1ccc(OCCNS(=O)(=O)c2c(F)cccc2F)c(OC)c1 | Tobacco mosaic virus | virus inactivation | plant in vivo | – | – | EC50 | > 2500 µg/mL
O=C(NNc1ccc(Cl)cc1)c1nnc(CC23CC4CC(CC(C4)C2)C3)o1 | Fusarium oxysporum | microbial growth | – | 50 µg/mL | – | inhibition | 100%
CCSC(SCC)c1ccc(OCCNS(=O)(=O)c2ccc(C)cc2)c(OC)c1 | Tobacco mosaic virus | inactivation activity | plant in vivo | – | – | EC50 | 566.5 ± 2.2 µg/mL
C#CCN1C(=O)C(CC#C)(C(=O)OCC)Oc2ccccc21 (stereo not shown) | Echinochloa crus-galli | – | greenhouse | postemergence, 150 g ai/ha, 21 days | – | fresh weight inhibition | > 50%
CCCSC(SCCC)c1ccc(OCCNS(=O)(=O)c2ccc(F)cc2)c(OC)c1 | Tobacco mosaic virus | curative activity | plant in vivo | – | – | EC50 | 296 ± 3.5 µg/mL
[O-][N+]1=C(c2ccccc2)C2=NCCN2c2ccccc21 | Prevotella spp. | bacterial growth | – | – | – | MIC50 | ≤ 0.06 µg/mL
CCCSC(SCCC)c1ccc(OCCNS(=O)(=O)c2ccc(Br)cc2)c(Cl)c1 | Tobacco mosaic virus | curative activity | plant in vivo | – | – | EC50 | 764.9 ± 4.1 µg/mL
COC(=O)C1=CO[C@@H](C)[C@@H]2Cn3ccc4c5ccccc5nc-4c3C[C@H]12 | Plasmodium falciparum | growth | C2B, atovaquone-resistant | 96 h | – | IC50 | 125 ± 59 nM
